{"data": "Results from different studies", "note": "Protocols differ between the studies behind these lines. ± marks the error that the study gave."}
{"Structure (SMILES)": "Cc1cc2c(C(C)C)c(O)c(O)c(C=O)c2c(O)c1-c1c(C)cc2c(C(C)C)c(O)c(O)c(C=O)c2c1O", "test": "mitochondrial swelling", "test system": "BALB/cByJ female mouse liver mitochondria", "setting": "30 min, with: succinate + rotenone", "scale": "reference: CaCl2 maximal swelling", "endpoint": "EC20", "value": "> 10 µM"}
{"Structure (SMILES)": "c1cc2ccc3cccc4ccc(c1)c2c34", "test": "HPLC-fluorescence", "test system": "Wistar rat, male, testes", "setting": "oral, 4 mg/kg, 24 h", "endpoint": "tissue concentration", "value": "12.6 ± 3.3 ng/g"}
{"Structure (SMILES)": "CCCCCOc1ccc(-c2cc(-c3ccc(C(=O)N[C@H]4C[C@@H](O)[C@@H](O)NC(=O)[C@@H]5[C@@H](O)[C@@H](C)CN5C(=O)[C@H]([C@H](O)CC(N)=O)NC(=O)[C@H]([C@H](O)[C@@H](O)c5ccc(O)c(OS(=O)(=O)O)c5)NC(=O)[C@@H]5C[C@@H](O)CN5C(=O)[C@H]([C@@H](C)O)NC4=O)cc3)no2)cc1", "test system": "human paediatric patients 2 to 5 years, plasma", "setting": "intravenous, 4.5 mg/kg once daily, day 7, mean", "endpoint": "Tmax", "value": "1.3 h"}
{"Structure (SMILES)": "CC[C@H](C)[C@H](NC(=O)[C@@H](N)CCCNC(=N)N)C(=O)N[C@H](C(=O)N1CCC[C@H]1C(=O)N[C@@H](C)C(N)=O)C(C)C", "test system": "CD-1 mouse, female, plasma", "setting": "intravenous, 90 mg/kg daily, day 14, infused over 1 min", "endpoint": "Tmax", "value": "0.05 h"}
{"Structure (SMILES)": "O[C@H]1CCCN[C@@H]1CCCn1cnc2c(Cl)c(Cl)ccc21", "test system": "healthy human volunteers, plasma", "setting": "oral, 100 mg twice daily, day 14, median", "endpoint": "Tmax at steady state", "value": "3 h"}
{"Structure (SMILES)": "O=C(c1ccc(F)c(F)c1Nc1ccc(I)cc1F)N1CC(O)([C@@H]2CCCCN2)C1", "test": "measured: retinal detachment", "test system": "human patients", "setting": "oral, 1 mg/kg, dose expansion, grade G4", "endpoint": "treatment-related adverse events", "value": "0%"}
{"Structure (SMILES)": "CC[C@H](C)[C@H](NC(=O)[C@H](CC(C)C)NC(=O)[C@H](Cc1c[nH]c2ccccc12)NC(=O)[C@H](CCC(N)=O)NC(=O)[C@@H](NC(=O)[C@H](Cc1ccccc1)NC(=O)[C@H](C)NC(=O)[C@H](CCCCNC(=O)COCCOCCNC(=O)COCCOCCNC(=O)CC[C@H](NC(=O)CCCCCCCCCCCCCCCCCCC(=O)O)C(=O)O)NC(=O)[C@H](CCC(N)=O)NC(=O)[C@H](C)NC(=O)[C@@H](NC(=O)[C@H](CCCCN)NC(=O)[C@H](CC(=O)O)NC(=O)[C@H](CC(C)C)NC(=O)C(C)(C)NC(=O)[C@@H](NC(=O)[C@H](CO)NC(=O)[C@H](Cc1ccc(O)cc1)NC(=O)[C@H](CC(=O)O)NC(=O)[C@H](CO)NC(=O)[C@@H](NC(=O)[C@H](Cc1ccccc1)NC(=O)[C@@H](NC(=O)CNC(=O)[C@H](CCC(=O)O)NC(=O)C(C)(C)NC(=O)[C@@H](N)Cc1ccc(O)cc1)[C@@H](C)O)[C@@H](C)O)[C@@H](C)CC)[C@@H](C)CC)C(C)C)C(=O)N[C@@H](C)C(=O)NCC(=O)NCC(=O)N1CCC[C@H]1C(=O)N[C@@H](CO)C(=O)N[C@@H](CO)C(=O)NCC(=O)N[C@@H](C)C(=O)N1CCC[C@H]1C(=O)N1CCC[C@H]1C(=O)N1CCC[C@H]1C(=O)N[C@@H](CO)C(N)=O", "test system": "human, moderate renal impairment, plasma", "setting": "subcutaneous, 5 mg, median of differences", "scale": "reference: normal renal function", "endpoint": "tmax difference", "value": "0 h"}
{"Structure (SMILES)": "[123I]c1cncc(OC[C@@H]2CCN2)c1", "test": "SPECT", "test system": "human, frontal lobe", "setting": "intravenous bolus plus infusion, 7.6 mCi", "scale": "reference: tissue over plasma", "endpoint": "tissue/plasma ratio", "value": 21.6}
{"Structure (SMILES)": "CC(C)C(=O)OC[C@H]1O[C@@H](n2ccc(NO)nc2=O)[C@H](O)[C@@H]1O", "test system": "rat brain dialysate", "setting": "5 ng/mL, 6 h, room temperature, bench-top stability, with: NHC 25 ng/mL", "endpoint": "remaining compound", "value": "101 ± 0.99%"}
{"Structure (SMILES)": "CCCCCCCCCCCCCCCCCC[N+](C)(C)Cc1ccccc1", "test": "ultrafiltration", "test system": "human serum", "endpoint": "unbound fraction in blood", "value": 0.139}
{"Structure (SMILES)": "O=c1[nH]c(Cc2ccccn2)nc2c1cnn2C1CCOCC1", "test system": "healthy men, extensive metabolizers, plasma", "setting": "oral, 200 mg single dose, tablet, geometric mean", "endpoint": "Cmax", "value": "2950 nM"}
{"Structure (SMILES)": "COc1ccc(C[C@@H]2NC(=O)[C@H]([C@@H](C)O)NC(=O)[C@@H]3[C@@H]4CCN3C(=O)[C@@H]3Cc5cn(c6ccc(F)cc56)CCCCCCN(Cc5ccc(cc5)CCNC(=O)[C@]5(C)CCCN5C2=O)C(=O)CCC(=O)N[C@@H](C)C(=O)N[C@H](CNC(=O)CCCCC[N+](C)(C)C)C(=O)N[C@@H](Cc2cccc(c2)CNC(=O)CO4)C(=O)N3)cc1", "test system": "fasted healthy men, plasma", "setting": "oral, 300 mg single dose, 24 h, with 1800 mg Labrasol, median", "endpoint": "plasma concentration", "value": "13.3 nM"}
{"Structure (SMILES)": "CN[C@@](C)(C[18F])C(=O)O", "test system": "SCID mouse U87 xenograft, heart", "setting": "15 min, post injection", "endpoint": "tissue uptake", "value": "4.4 ± 1.1 %ID/g"}
{"Structure (SMILES)": "NC(=O)c1nc(F)c[nH]c1=O", "test": "UV-Vis spectrophotometry", "test system": "supercritical CO2", "setting": "120 min, 318 K, 24 MPa, 850.10 kg/m^3", "endpoint": "solubility", "value": "1300 µg/mL"}
{"Structure (SMILES)": "Oc1cc(Cl)c(Cl)c(-c2ccc(Cl)cc2Cl)c1Cl", "test": "enantioselective GC, measured: hydroxylated metabolite", "test system": "phenobarbital-treated rat, rat liver microsomes", "setting": "50 µM, 30 min", "endpoint": "enantiomeric fraction", "value": 0.54}
{"Structure (SMILES)": "CC(C)C[C@H](NC(=O)CNC(=O)c1cc(Cl)ccc1Cl)B(O)O", "test": "population PK", "test system": "adult patients, plasma", "endpoint": "terminal half-life", "value": "229 h"}
{"Structure (SMILES)": "CC(=O)N[C@H](CCCCNC(=O)C(C)F)C(=O)N[C@@H](CS)C(=O)N[C@@H](CS)C(=O)N[C@@H](CCC(=O)O)C(=O)N[C@@H](Cc1c[nH]cn1)C(=O)N[C@H](Cc1ccccc1)C(=O)N[C@@H](CCCNC(=N)N)C(=O)N[C@@H](Cc1c[nH]c2ccccc12)C(=O)N[C@@H](CS)C(=O)N[C@@H](CCCNC(=N)N)C(=O)N1CCC[C@H]1C(=O)N[C@H](C(N)=O)C(C)C (stereo partly shown) [fluorine-18 labelled]", "test system": "Foxn1 nude mouse, A375M xenograft", "setting": "intravenous, 2 h", "endpoint": "tumour to muscle ratio", "value": "4.49 ± 0.17"}
{"Structure (SMILES)": "FC(F)(c1ccccc1)[P-](F)(F)(F)(F)F", "test system": "dichloromethane/water", "setting": "24 h, room temperature", "endpoint": "logP", "value": -0.23}
{"Structure (SMILES)": "CC[C@H](C)[C@H](NC(=O)[C@H](CO)NC(=O)[C@H](C)NC(=O)[C@@H](NC(=O)CNC(=O)[C@H](CO)NC(=O)[C@@H](NC(=O)[C@@H](NC(=O)[C@H](Cc1c[nH]cn1)NC(=O)[C@@H]1CCCN1C(=O)[C@@H](NC(=O)[C@H](CC(C)C)NC(=O)[C@H](CO)NC(=O)[C@H](CC(C)C)NC(=O)[C@@H](N)Cc1ccccc1)[C@@H](C)CC)[C@@H](C)CC)C(C)C)C(C)C)C(=O)N[C@@H](C)C(=O)N[C@@H](CCCCN)C(=O)N[C@@H](Cc1c[nH]cn1)C(=O)N[C@@H](Cc1ccccc1)C(N)=O", "test": "UPLC-MS/MS", "test system": "rat plasma", "setting": "0.05 µg/mL, three freeze-thaw cycles", "endpoint": "concentration found", "value": "50 ng/mL"}
{"Structure (SMILES)": "CCc1cccc(CC)c1N(COC)C(=O)CCl", "test": "LC-MS/MS", "test system": "herbicide solution", "setting": "2 h, 4 °C, with: 254 nm UV exposure", "endpoint": "remaining amount", "value": "10.6 ± 4.85%"}
{"Structure (SMILES)": "CC1(C)S[C@@H]2[C@H](NC(=O)[C@@H](C(=O)O)c3ccsc3)C(=O)N2[C@H]1C(=O)O", "test system": "rat plasma", "setting": "2400 ng/mL, three freeze-thaw cycles", "scale": "reference: nominal concentration", "endpoint": "relative error", "value": "-2.3%"}
{"Structure (SMILES)": "C[C@H](Cn1cnc2c(N)ncnc21)OCP(=O)(O)O", "test": "two-compartment model", "test system": "Macaca nemestrina, male", "setting": "subcutaneous, 10.6 mg/kg", "endpoint": "elimination half-life (t1/2,beta)", "value": "9.93 h"}
{"note": "Some of these lines once more:"}
{"Structure (SMILES)": "CCCCCCCCCCCCCCCCCC[N+](C)(C)Cc1ccccc1", "test": "ultrafiltration", "test system": "human serum", "endpoint": "unbound fraction in blood", "value": 0.139}
{"Structure (SMILES)": "[123I]c1cncc(OC[C@@H]2CCN2)c1", "test": "SPECT", "test system": "human, frontal lobe", "setting": "intravenous bolus plus infusion, 7.6 mCi", "scale": "reference: tissue over plasma", "endpoint": "tissue/plasma ratio", "value": 21.6}
